Measurements from different studies.
Each numbered part is a random draw from the data of one study; scales do not carry over between parts. Several values in a cell are separate wells, animals, samples, runs or records.
UniProt P00519, sequence (whole entry, unmodified, looked up): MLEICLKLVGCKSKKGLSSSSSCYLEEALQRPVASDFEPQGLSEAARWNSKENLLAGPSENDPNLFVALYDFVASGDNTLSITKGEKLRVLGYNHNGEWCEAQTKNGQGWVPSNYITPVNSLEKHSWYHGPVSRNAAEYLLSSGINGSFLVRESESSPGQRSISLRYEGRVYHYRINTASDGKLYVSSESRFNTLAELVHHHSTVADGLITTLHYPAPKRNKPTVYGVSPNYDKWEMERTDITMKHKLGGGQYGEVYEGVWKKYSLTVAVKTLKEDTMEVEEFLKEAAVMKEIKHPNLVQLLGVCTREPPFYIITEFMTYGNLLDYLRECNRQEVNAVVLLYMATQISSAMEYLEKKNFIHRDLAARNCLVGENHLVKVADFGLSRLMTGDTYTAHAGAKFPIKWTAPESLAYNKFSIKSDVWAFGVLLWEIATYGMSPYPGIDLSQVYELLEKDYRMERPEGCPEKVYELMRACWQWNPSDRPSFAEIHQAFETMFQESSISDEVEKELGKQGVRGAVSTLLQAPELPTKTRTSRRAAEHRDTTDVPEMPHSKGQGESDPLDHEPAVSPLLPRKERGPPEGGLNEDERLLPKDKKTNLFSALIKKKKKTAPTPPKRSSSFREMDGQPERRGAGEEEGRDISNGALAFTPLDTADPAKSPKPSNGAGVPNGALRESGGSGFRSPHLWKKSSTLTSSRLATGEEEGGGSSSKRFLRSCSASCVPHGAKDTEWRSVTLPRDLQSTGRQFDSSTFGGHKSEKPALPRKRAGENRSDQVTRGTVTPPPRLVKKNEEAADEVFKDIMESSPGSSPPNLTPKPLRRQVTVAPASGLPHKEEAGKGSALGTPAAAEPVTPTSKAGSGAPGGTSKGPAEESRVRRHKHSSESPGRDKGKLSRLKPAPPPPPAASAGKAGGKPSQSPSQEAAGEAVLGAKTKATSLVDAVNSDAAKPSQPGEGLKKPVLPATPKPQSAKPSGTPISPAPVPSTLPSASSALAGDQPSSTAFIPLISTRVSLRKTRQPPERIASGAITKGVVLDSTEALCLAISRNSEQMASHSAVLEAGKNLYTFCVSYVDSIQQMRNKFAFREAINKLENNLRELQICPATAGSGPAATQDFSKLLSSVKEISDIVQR
UniProt P16591, sequence (whole entry, looked up): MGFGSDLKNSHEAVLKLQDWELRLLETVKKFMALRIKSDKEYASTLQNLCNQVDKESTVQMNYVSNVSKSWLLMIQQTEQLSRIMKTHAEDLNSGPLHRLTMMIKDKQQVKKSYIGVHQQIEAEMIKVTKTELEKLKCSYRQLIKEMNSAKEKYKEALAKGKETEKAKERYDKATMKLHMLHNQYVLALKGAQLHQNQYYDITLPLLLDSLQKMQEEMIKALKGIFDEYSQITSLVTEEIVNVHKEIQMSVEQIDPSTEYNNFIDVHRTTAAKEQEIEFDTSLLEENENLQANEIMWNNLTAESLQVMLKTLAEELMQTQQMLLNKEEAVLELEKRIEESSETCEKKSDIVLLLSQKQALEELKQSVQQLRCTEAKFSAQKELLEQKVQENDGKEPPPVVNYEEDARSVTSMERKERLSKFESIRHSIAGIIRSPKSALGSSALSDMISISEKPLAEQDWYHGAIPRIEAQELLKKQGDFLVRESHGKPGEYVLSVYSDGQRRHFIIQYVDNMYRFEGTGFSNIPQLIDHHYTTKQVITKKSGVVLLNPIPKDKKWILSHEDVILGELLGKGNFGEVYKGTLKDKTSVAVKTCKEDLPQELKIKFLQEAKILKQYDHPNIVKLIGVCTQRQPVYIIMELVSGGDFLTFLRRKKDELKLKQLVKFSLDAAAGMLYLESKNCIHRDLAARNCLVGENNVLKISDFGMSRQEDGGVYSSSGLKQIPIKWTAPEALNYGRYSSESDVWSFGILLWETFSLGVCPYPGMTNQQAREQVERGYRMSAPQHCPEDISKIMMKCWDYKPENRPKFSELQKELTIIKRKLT
UniProt Q13705, sequence (whole entry, looked up): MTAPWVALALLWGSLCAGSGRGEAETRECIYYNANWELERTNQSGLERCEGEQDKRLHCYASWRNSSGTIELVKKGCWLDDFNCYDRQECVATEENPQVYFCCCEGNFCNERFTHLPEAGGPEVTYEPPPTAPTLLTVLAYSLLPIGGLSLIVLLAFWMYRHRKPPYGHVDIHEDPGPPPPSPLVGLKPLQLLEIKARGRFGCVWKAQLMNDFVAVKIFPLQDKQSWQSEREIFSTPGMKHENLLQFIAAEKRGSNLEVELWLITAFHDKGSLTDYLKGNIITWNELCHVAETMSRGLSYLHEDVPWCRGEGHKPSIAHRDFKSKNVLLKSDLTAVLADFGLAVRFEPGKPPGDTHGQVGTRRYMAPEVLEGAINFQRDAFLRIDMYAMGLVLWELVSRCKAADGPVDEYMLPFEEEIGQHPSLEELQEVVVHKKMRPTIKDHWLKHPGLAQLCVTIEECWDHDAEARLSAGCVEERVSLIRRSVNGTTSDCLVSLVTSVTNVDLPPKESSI
UniProt O43283, sequence (whole entry, looked up): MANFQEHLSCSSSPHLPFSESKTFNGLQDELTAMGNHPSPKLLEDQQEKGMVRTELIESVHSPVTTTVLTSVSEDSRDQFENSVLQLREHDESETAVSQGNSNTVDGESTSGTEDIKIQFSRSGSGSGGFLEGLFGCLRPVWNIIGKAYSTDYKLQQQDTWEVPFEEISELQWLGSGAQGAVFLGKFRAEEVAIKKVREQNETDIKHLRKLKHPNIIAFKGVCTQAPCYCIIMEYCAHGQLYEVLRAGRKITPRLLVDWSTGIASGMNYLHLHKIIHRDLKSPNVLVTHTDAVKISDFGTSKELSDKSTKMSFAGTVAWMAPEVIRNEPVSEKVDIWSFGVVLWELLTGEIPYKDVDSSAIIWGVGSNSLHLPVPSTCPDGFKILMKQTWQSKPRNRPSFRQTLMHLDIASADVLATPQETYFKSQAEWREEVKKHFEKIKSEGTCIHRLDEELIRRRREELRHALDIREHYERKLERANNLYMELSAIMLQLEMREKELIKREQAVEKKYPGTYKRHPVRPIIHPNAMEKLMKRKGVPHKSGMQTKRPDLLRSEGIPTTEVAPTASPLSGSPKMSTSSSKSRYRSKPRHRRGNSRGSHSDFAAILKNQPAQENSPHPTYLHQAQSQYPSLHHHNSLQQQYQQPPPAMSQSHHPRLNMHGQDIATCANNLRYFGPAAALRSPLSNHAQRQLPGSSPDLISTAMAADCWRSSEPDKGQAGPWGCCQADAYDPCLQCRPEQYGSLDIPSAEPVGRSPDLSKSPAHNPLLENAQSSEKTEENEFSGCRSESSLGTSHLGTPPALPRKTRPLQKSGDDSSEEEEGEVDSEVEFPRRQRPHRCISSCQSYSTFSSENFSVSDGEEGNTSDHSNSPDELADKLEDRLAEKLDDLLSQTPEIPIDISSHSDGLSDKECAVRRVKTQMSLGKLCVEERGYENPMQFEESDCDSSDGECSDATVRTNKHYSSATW
UniProt Q9P289, sequence (whole entry, looked up): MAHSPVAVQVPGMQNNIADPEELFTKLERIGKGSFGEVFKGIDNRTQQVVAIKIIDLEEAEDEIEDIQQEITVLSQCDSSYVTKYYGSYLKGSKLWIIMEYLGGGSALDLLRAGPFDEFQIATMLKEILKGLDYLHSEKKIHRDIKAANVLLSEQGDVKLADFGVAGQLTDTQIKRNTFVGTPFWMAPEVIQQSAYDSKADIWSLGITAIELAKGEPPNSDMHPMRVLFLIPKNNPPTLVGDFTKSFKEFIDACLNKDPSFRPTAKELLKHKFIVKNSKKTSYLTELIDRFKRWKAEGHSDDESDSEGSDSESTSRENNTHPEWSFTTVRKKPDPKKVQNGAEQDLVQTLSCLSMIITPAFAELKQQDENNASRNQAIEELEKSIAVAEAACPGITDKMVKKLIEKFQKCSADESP
UniProt P41240, sequence (whole entry, looked up): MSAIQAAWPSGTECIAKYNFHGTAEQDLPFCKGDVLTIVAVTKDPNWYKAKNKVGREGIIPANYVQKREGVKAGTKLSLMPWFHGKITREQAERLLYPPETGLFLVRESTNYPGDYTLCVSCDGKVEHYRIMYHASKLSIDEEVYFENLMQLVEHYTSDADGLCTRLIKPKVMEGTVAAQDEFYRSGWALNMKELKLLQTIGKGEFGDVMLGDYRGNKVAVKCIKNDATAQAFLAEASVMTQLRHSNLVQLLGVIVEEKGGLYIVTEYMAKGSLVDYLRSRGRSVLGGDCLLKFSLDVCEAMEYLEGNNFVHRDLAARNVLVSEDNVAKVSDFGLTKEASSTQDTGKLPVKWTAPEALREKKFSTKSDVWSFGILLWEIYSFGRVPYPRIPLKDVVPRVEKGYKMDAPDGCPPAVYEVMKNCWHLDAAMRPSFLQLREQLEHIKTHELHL
UniProt Q9UEE5, sequence (whole entry, looked up): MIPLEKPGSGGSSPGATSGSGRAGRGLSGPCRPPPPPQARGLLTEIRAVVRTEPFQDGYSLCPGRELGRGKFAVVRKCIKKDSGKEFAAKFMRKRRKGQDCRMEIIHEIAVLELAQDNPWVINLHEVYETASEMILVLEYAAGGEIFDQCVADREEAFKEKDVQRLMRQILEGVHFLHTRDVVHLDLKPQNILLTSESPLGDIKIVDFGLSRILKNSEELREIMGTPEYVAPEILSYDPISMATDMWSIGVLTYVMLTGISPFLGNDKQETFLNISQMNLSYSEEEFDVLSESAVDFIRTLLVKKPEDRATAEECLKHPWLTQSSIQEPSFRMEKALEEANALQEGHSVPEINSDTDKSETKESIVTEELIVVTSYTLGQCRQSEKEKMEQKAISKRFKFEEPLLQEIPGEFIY

Sample 1
Cell line: mouse MPNST tumor cells
Method: high-content immunofluorescence imaging
Refers to: nuclear SOX9
Tested at: 10 µM
Time: 12 h
Notes: mean of 2 replicates
Baseline: DMSO control
Reading: higher = more nuclear SOX9
SMILES	nuclear SOX9 intensity
COc1cc(Cc2cnc(N)nc2N)c(C(C)C)cc1OC	128 % of DMSO
CCN(CC)c1ccc(C=NNC(=O)c2ccc(O)cc2)cc1	131 % of DMSO
FC(F)(F)c1ccccc1-c1cc(C(F)(F)F)c2nc(C3=NOC4(CCCCC4)C3)[nH]c2c1	116 % of DMSO
O=[N+]([O-])c1cnc(CO)n1CCO	101 % of DMSO
CC(=O)N1CCN(C(=O)/C=C/c2ccc(Sc3ccccc3C(C)C)c([N+](=O)[O-])c2)CC1	122 % of DMSO
COc1ccnc(C[S+]([O-])c2nc3cc(OC(F)F)ccc3[nH]2)c1OC (stereo not drawn)	94.7 % of DMSO
CCCCOC(=O)c1ccc(N)cc1	95.8 % of DMSO
C#CCN[C@@H]1CCc2ccccc21	87.3 % of DMSO and 125 % of DMSO
N#Cc1c(N)nc(SCc2ncc[nH]2)c(C#N)c1-c1ccc(O)cc1	104 % of DMSO
O=C(Nc1cccc(Cl)c1)Nc1ncc(CCNc2ncnc3ccsc23)s1	171 % of DMSO
O=P(O)(O)C(O)(Cc1cccnc1)P(=O)(O)O	94.3 % of DMSO
Clc1ccc(CSC(Cn2ccnc2)c2ccc(Cl)cc2Cl)cc1 (stereo not drawn)	116 % of DMSO
C[C@]12CC[C@H]3C(=CCc4cc(O)ccc43)[C@@H]1CCC2=O	107 % of DMSO

Sample 2
Cell line: normal organoid sample D
Method: CellTiter-Glo
Host: human
Tested at: 1 µM
Time: 4 days
Baseline: DMSO
SMILES	viability
C[C@H](c1ccc(F)cc1)N(Cc1ccc(Cl)c(C(=O)O)c1)C(=O)c1cnc2ccccc2c1	110% and 115%
NS(=O)(=O)c1cc(NC(=O)C2(c3ccccc3Cl)CC2)ccc1Oc1cccc(Cl)c1	104% and 86.5%
Cc1c(NC(=O)c2cc(C(N)=O)nc3cc(F)ccc23)c(C(F)(F)F)nn1Cc1ccc(C#N)cc1	22.7% and 29.2%
CN(C)C(=O)Cn1cc(-c2nc(C3(c4ccc(-c5cnc(N)nc5)cc4)CC3)no2)cn1	87.2% and 108%
CN(C)c1ncnc(-c2ccc3nc(Nc4cc(CN5CCN(C(=O)CC(F)(F)F)CC5)ccn4)[nH]c3c2)c1Cl	91% and 78.9%
O=C(NCc1ncc(C(F)(F)F)cc1Cl)c1ccc2c(c1)C1(CCS(=O)(=O)CC1)[C@@H](C1CC1)N2S(=O)(=O)c1ccc(F)cc1	122% and 116%
CCCCN(CCCC)C(=O)CN1C[C@@H](c2cc(OC)c3c(c2)OCO3)[C@H](C(=O)O)[C@H]1CC(C)(C)CCC	113% and 139%
CCCCN(Cc1ccccc1)C(=O)c1ccc(S(=O)(=O)Nc2ccccc2)cc1	118% and 108%

Sample 3
SMILES: CN1CCN(C(=O)c2ccc(NC(=O)Nc3ccc(N(C)c4ccnc(Nc5ccc(CS(C)(=O)=O)cc5)n4)cc3)cc2)CC1
Tested at: 1 µM
target	assay	setting	scale	remaining binding
NEK10 (Homo sapiens, UniProt Q6ZWH5)	competitive binding panel	–	baseline: vehicle	94%
RPS6KA5 (Homo sapiens, UniProt O75582)	competitive binding scan	C-terminal kinase domain 2	–	87%
DSTYK (Homo sapiens, UniProt Q6XUX3)	competitive binding panel, refers to: RIPK5	–	baseline: vehicle	5.4%
STK26 (Homo sapiens, UniProt Q9P289)	competitive binding panel, refers to: MST4	–	baseline: vehicle	11%
MAP3K13 (Homo sapiens, UniProt O43283)	competitive binding	LZK	–	70%
CSK (Homo sapiens, UniProt P41240)	competitive binding panel	–	baseline: vehicle	62%
STK17A (Homo sapiens, UniProt Q9UEE5)	competitive binding panel, refers to: DRAK1	–	baseline: vehicle	100%
TEC (Homo sapiens, UniProt P42680)	competitive binding panel	–	baseline: vehicle	100%
FER (Homo sapiens, UniProt P16591)	competitive binding panel	–	baseline: vehicle	46%
ABL1 (Homo sapiens, UniProt P00519, F317I)	competitive binding, scanMAX	–	–	96% and 69%
ACVR2B (Homo sapiens, UniProt Q13705)	competitive binding panel	–	baseline: vehicle	94%

Sample 4
Target: Serine/threonine-protein kinase pim-3 (PIM3, Homo sapiens, UniProt Q86V86)
Observed: enzyme activity
Action: inhibitor
Tested at: 0.5 µM
Baseline: control
Structure (SMILES)	remaining activity
N#CC(c1ccnc(NCCc2cccnc2)n1)c1nc2ccccc2s1 (stereo not drawn)	3.74%
Clc1ccc(Nc2nnc(Cc3ccncc3)c3ccccc23)cc1	98.9%
CCCCc1c(-c2ccc(O)cc2)[nH]c2nccnc12	72.8%
c1cc(-c2cnn3cc(-c4ccc(OCCN5CCCCC5)cc4)cnc23)ccn1	83.8%
CNc1cc2c(Nc3cccc(Br)c3)ncnc2cn1	55.2%
O=Nc1c(-c2c(O)[nH]c3ccccc23)[nH]c2ccccc12	73.6%
COc1cc2c(Nc3ccc(Br)cc3F)ncnc2cc1OCC1CCN(C)CC1	96.1%
C[C@@H](N)[C@H]1CC[C@H](C(=O)Nc2ccncc2)CC1	97%
O=c1c(-c2ccc(F)cc2)c(-c2ccncc2)[nH]n1-c1ccc(Cl)cc1	89.9%
FC(F)(F)c1ccc(/C=C/c2nc(COc3ccc(CCCCn4ccnn4)cc3)co2)cc1	107%
O=C1NC(=O)/C(=C/c2ccc3c(c2)OC(F)(F)O3)S1	39.8%
O=C1c2ccccc2-c2nc3nnnn3nc21	93.3%
O=C(c1ccccc1)c1ccc(N2CCOCC2)cc1O	98.9%
O=C(O)/C=C/c1cc(Br)c(Br)c(Br)c1Br	17.7%
CC(C)(C)c1nc2c3cc[nH]c(=O)c3c3cc(F)ccc3c2[nH]1	33.9%
NC(=O)c1ccc(-c2nc(-c3ccc4c(c3)OCCO4)c(-c3ccccn3)[nH]2)cc1	96.9%
CCN(CC)CCCCN1c2ccccc2Oc2ccc(Cl)cc21	37.8%
Nc1nc(Nc2ccc(S(N)(=O)=O)cc2)nn1C(=S)Nc1c(F)cccc1F	89.1%
CC(C)N(CCC(=O)c1ccc2ccccc2c1)Cc1ccccc1	105%
N#C/C(=C(/N)SC1C=CC=CC1)c1cccc(C(O)c2ccncc2)c1 (stereo not drawn)	112%
NC(=O)c1cccc(-c2cc(Nc3ccc(OC(F)(F)F)cc3)ncn2)c1	88.6%
CC(C)n1cnc2c(Nc3cccc(Cl)c3)nc(NCCO)nc21	90.4%

For quick reference, copied from above (sample 1):
SMILES	nuclear SOX9 intensity
CC(=O)N1CCN(C(=O)/C=C/c2ccc(Sc3ccccc3C(C)C)c([N+](=O)[O-])c2)CC1	122 % of DMSO
FC(F)(F)c1ccccc1-c1cc(C(F)(F)F)c2nc(C3=NOC4(CCCCC4)C3)[nH]c2c1	116 % of DMSO
C#CCN[C@@H]1CCc2ccccc21	87.3 % of DMSO and 125 % of DMSO
CCCCOC(=O)c1ccc(N)cc1	95.8 % of DMSO
COc1ccnc(C[S+]([O-])c2nc3cc(OC(F)F)ccc3[nH]2)c1OC (stereo not drawn)	94.7 % of DMSO
COc1cc(Cc2cnc(N)nc2N)c(C(C)C)cc1OC	128 % of DMSO
